Results from different studies.
Lines come from different studies, so protocols differ. “And” joins repeats or separate records; there may be more than shown.
Target: RAC-gamma serine/threonine-protein kinase (AKT3, Homo sapiens, UniProt Q9Y243)

NC(=O)[C@@H](O)C[C@H]1CCc2sc3ncnc(O[C@H]4CC[C@H](N5CCOCC5)CC4)c3c21 — inhibition (enzyme activity, inhibitor; 10 µM): 4%
COc1cc(Nc2nccc(-c3cnn4nc(OC)ccc34)n2)cc(C(F)(F)F)c1 — remaining binding (binding, competition with immobilised ligand; 1 µM): 100%
Cc1nc2c(F)cc(-c3nc(Nc4ccc(CNC(=O)CCCCCCC(=O)NO)cc4)ncc3F)cc2n1C(C)C — inhibition (enzyme activity, inhibitor; 1 µM): 56%
Cc1cccc(O[C@H]2CCC[C@@H](C(C)CNCc3ccncc3)C2)c1 (relative stereo) — inhibition (enzyme activity, inhibitor; 1 µM): -5%
CN1CC[C@@H](COc2cnc(C#N)cc2-c2ccn3nc(NC(=O)C4CC4)cc3c2)C1 — inhibition (enzyme activity, inhibitor; 1 µM): 6%
CNC(=O)C1CCN(c2cc(C)c(F)cc2NC(=O)c2ccc(-c3cc(O)ccc3C)c(C)c2)CC1 — remaining binding (binding, competition with immobilised ligand; 1 µM): 98%
C=CC(=O)N1CCCC(n2c(=O)c3ncccc3n(Cc3ccc(Oc4ccccc4)cc3)c2=O)C1 (stereo not drawn) — remaining binding (cell-free assay, competition with immobilised ligand; 1 µM): 100%
Cc1ccc(-c2c(/C=C(\C#N)C(=O)NC(C)C)n(CCCO)c3ncnc(N)c23)cc1 — remaining binding (cell-free assay, competition with immobilised ligand; 1 µM): 100%
COc1c(Cl)cccc1Nc1c(-c2ccncc2C#C[C@@]2(C)CCCN2C(=O)/C=C/CN(C)C)[nH]c2c1C(=O)NCC2 — remaining binding (binding, competition with immobilised ligand; 3 µM): 96%
CCn1cc(C(=O)O)c(=O)c2c(N)c(F)c(NC3CCCCC3)cc21 — inhibition (kinase activity; 0.1 µM, added: ATP at Km): 6.2%
O=C(Cc1ccc(OCc2ccccc2)cc1)NC1(C(=O)O)CCN(C(=O)c2ccc(-c3cccc(Cl)c3)cc2)CC1 — activity vs control (enzyme activity, inhibitor; 10 µM): 106%
CNC1C[S+]2CC[S+]3CC[S+](C1)[Ru-4]321([N]=C=S)[n]2c3ccc(OC)cc3c3c4c(c5cc(F)c[n+]1c5c32)C(=O)NC4=O (stereo not drawn) — remaining binding (KinomeScan; 0.1 µM; relative to: untreated): 100%
C=CC(=O)Nc1cccc(-c2cnc3[nH]cc(C(=O)NC(C)(C)C)c3n2)c1 — inhibition (kinase activity; 0.1 µM): 0% and -1%
CCN1CCN(Cc2ccc(C(=O)Nc3ccc(C)c(NCc4cnc5[nH]ccc5c4OC)c3)cc2C(F)(F)F)CC1 — remaining binding (binding, competition with immobilised ligand; 1 µM): 100%
CN1CCN(Cc2ccc(-c3ccc(CO[C@H]4CCC[C@@H]4NC(=O)c4cc(-c5cnn(C)c5)cnc4N)cc3)cc2)CC1 — inhibition (enzyme activity, inhibitor; 0.1 µM): 6%

For quick reference, copied from above:
CNC1C[S+]2CC[S+]3CC[S+](C1)[Ru-4]321([N]=C=S)[n]2c3ccc(OC)cc3c3c4c(c5cc(F)c[n+]1c5c32)C(=O)NC4=O (stereo not drawn) — remaining binding (KinomeScan; 0.1 µM; relative to: untreated): 100%
Cc1ccc(-c2c(/C=C(\C#N)C(=O)NC(C)C)n(CCCO)c3ncnc(N)c23)cc1 — remaining binding (cell-free assay, competition with immobilised ligand; 1 µM): 100%
